Published values from different studies.
Compare with care: the assays were run in different laboratories. ± gives the spread as reported.
ADRA2C: Alpha-2C adrenergic receptor (ADRA2C, Homo sapiens, UniProt P18825)
Chain of UniProt P18825 (whole entry, looked up): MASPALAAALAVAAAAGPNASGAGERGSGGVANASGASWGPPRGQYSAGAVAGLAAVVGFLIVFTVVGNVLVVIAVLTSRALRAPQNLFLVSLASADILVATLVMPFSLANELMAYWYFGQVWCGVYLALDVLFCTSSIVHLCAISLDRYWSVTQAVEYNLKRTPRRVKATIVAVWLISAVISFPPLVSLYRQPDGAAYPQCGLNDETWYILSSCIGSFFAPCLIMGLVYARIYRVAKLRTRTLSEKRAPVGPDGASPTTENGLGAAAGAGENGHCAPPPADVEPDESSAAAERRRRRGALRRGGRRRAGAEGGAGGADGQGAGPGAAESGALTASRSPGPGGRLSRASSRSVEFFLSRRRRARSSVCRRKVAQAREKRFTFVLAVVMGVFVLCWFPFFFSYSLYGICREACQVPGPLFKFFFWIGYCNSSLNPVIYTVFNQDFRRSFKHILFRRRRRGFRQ
BCHE: Cholinesterase (BCHE, Equus caballus, UniProt P81908)
Chain of UniProt P81908 (whole entry, looked up): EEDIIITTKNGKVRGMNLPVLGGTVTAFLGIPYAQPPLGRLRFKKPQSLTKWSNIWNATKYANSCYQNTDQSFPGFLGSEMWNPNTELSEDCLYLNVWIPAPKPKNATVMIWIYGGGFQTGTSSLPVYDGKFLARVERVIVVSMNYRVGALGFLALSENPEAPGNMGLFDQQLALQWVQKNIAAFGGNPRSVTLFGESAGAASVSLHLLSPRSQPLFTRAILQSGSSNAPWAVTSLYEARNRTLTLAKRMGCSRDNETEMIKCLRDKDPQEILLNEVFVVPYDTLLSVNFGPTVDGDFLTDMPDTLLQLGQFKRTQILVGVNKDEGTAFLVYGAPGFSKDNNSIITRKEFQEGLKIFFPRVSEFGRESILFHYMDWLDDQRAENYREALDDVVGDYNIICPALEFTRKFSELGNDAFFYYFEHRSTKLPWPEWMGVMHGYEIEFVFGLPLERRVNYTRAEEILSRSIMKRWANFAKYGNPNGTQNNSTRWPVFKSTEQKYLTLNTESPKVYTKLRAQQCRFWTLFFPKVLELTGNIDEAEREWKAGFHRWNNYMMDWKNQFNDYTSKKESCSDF
ACHE: Acetylcholinesterase (ACHE, Homo sapiens, UniProt P22303)
Chain of UniProt P22303 (whole entry, looked up): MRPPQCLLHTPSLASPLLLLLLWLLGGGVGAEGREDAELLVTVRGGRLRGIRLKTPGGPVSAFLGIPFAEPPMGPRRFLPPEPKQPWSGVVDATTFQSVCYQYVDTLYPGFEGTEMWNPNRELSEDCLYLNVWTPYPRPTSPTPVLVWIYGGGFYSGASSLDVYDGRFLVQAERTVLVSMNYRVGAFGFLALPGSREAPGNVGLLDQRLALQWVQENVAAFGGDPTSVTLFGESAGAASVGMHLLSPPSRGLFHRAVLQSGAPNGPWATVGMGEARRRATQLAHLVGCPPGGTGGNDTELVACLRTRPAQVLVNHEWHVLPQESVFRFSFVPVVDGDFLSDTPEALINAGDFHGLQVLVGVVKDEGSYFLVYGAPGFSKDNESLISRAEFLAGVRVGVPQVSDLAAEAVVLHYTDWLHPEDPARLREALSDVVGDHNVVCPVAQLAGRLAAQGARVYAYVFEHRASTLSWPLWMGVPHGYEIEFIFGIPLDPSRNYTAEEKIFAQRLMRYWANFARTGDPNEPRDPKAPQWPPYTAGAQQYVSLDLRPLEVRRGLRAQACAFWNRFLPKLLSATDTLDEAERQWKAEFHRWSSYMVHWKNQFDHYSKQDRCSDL
lacZ: Beta-galactosidase (lacZ, Escherichia coli K-12, UniProt P00722)
Chain of UniProt P00722 (whole entry, looked up): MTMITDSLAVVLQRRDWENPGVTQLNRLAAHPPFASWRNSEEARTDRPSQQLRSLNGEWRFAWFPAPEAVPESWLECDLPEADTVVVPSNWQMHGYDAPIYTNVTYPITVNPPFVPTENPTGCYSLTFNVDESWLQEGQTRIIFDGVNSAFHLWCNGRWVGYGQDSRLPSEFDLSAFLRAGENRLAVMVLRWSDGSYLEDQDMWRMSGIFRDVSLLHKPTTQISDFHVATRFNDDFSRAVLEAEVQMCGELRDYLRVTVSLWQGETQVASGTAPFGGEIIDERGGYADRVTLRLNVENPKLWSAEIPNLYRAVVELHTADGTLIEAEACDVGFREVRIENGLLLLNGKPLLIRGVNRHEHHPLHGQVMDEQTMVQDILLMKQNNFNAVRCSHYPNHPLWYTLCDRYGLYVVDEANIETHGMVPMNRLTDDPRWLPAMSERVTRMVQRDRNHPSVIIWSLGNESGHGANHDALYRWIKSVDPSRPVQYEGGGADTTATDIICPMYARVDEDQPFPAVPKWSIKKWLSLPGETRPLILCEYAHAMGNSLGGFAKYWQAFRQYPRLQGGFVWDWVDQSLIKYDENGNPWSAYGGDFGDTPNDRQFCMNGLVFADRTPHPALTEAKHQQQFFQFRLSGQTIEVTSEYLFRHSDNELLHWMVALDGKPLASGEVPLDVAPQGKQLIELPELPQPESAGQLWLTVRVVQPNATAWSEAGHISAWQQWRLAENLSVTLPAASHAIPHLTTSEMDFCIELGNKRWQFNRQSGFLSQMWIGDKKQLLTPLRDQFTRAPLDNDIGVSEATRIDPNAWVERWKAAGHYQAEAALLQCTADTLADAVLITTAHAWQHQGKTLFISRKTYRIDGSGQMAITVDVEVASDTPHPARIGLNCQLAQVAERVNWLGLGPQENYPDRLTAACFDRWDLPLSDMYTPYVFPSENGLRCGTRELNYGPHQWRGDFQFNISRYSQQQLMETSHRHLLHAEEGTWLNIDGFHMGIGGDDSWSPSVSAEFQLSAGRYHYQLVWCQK
HDAC1: Histone deacetylase 1 (HDAC1, Homo sapiens, UniProt Q13547)
Chain of UniProt Q13547 (whole entry, looked up): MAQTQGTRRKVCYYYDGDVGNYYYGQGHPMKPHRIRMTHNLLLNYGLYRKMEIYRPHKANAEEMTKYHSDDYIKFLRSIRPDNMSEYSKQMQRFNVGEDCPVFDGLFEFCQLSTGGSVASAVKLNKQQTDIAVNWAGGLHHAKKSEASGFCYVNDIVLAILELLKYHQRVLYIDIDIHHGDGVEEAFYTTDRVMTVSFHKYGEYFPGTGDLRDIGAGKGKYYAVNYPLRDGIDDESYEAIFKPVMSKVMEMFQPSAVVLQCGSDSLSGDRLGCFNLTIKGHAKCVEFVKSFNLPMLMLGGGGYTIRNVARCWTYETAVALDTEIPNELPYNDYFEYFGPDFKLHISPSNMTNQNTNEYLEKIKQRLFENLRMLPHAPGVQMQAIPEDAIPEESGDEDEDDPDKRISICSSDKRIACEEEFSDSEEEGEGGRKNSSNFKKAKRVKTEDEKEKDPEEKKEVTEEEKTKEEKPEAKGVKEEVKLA
Chain of UniProt Q00534 (whole entry, looked up): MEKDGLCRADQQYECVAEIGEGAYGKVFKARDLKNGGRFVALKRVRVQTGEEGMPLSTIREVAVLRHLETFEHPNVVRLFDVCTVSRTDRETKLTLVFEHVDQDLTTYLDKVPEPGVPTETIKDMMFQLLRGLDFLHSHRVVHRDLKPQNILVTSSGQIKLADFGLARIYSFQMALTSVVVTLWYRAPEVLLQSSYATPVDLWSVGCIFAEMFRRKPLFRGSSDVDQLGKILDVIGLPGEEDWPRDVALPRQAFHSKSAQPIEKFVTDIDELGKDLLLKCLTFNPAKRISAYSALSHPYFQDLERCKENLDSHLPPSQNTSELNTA
Chain of UniProt Q869C3 (whole entry, looked up): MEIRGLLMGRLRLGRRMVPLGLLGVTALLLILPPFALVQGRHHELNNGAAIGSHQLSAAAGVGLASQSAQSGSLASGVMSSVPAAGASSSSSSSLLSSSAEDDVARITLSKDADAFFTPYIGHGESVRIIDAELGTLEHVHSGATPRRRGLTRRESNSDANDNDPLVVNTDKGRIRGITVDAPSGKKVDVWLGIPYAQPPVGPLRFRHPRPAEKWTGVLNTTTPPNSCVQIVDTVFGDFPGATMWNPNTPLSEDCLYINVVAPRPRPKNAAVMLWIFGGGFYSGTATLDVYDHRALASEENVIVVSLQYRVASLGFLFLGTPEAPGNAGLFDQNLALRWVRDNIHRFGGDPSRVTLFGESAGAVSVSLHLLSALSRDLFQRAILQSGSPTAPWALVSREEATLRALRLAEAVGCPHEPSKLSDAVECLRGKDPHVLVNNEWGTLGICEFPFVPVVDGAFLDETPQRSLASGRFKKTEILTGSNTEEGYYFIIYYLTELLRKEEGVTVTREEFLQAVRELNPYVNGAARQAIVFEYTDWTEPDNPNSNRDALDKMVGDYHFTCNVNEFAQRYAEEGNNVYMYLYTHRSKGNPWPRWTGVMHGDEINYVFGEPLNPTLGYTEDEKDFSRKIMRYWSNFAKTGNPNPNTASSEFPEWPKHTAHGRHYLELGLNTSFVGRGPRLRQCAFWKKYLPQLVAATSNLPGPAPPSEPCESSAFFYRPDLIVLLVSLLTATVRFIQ
Chain of UniProt O60733 (whole entry, looked up): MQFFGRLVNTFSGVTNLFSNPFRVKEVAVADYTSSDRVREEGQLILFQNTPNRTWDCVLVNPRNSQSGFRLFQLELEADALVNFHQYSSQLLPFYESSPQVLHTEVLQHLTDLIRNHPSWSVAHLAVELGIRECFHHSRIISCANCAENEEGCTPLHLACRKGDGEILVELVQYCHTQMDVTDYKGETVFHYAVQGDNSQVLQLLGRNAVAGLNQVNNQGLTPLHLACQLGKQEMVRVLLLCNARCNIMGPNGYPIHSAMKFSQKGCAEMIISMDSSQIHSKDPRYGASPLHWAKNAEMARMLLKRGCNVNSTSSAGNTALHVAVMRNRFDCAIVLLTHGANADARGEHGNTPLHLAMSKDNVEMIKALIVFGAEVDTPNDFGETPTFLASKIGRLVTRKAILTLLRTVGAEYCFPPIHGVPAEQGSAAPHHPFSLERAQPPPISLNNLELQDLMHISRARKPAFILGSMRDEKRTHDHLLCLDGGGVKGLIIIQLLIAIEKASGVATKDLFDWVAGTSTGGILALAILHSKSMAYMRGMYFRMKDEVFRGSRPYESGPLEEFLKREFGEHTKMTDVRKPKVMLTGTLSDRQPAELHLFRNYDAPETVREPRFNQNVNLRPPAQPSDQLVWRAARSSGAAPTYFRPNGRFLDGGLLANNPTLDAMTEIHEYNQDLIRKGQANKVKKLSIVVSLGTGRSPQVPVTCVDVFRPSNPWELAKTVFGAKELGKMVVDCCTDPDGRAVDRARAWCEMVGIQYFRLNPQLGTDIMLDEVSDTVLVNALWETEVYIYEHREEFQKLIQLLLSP

The inhibition of `CC1N=C(c2ccccc2F)c2cc(N3CCOCC3)ccc2NC1=O` (centres unmarked) is reported as 30% (ADRA2C; ligand displacement, radioligand; 10 µM).
With `CC(C)c1ccc2c(c1)CC[C@H]1[C@](C)(CN)CCC[C@]21C` the IC50 was 4.44 ± 0.65 µM (WM278.1 melanoma (vertical growth phase); cell viability, MTS; 24 h).
With `CSCC[C@H](NC(=O)OCC1c2ccccc2-c2ccccc21)C(=O)O` the inhibition was no more than 10% (BCHE; enzyme activity, Ellman method; 200 µM, 2% methanol).
`CNC(C)Cc1ccc2c(c1)OCO2` (racemic): “subjective drug effect rating” 47.8 (Drug Effects Questionnaire, refers to: Like Drug; human; oral, 1.5 mg/kg, mean over session, unit not given; reference: pre-dose baseline).
The inhibition of `CC(C)(C)c1cnc(CSc2cnc(NC(=O)C3CCNCC3)s2)o1` is reported as 73.8% (Cyclin-dependent kinase 6 (CDK6, Homo sapiens, UniProt Q00534); probe labeling, KiNativ live-cell profiling; MOLT-4 CRBN knockout; 0.25 µM).
`COc1cc(/C=N/NC(=O)Cn2cnc3c2c(=O)n(C)c(=O)n3C)ccc1O` gave an inhibition of greater than 75% (ACHE; enzyme activity, inhibitor, Ellman; 25 µM).
The inhibition of `C[C@@H]1CCCC(=O)CCCC(=O)Cc2cc(O)cc(O)c2C(=O)O1` is reported as -60.3% (Delta-type opioid receptor (OPRD1, Homo sapiens, UniProt P41143); ligand displacement, radioligand; 10 µM).
The tracer uptake of `CN[C@@](C)(C[18F])C(=O)O` is reported as 30 %ID/g (SK-OV-3 tumour model; host not given, pancreas; 30 min, tumour-bearing).
`O=C(O)C(=O)CBr` gave an inhibition of 98% (Sodium-coupled monocarboxylate transporter 1 (Slc5a8, Mus musculus, UniProt Q8BYF6); nicotinate uptake; HRPE expressing Slc5a8; 1 mM, 15 min, mouse, with: [14C]nicotinate 15 µM).
For `Cc1ccc(Nc2ccc3c(c2)C(c2ccccc2F)=NC(C)C(=O)N3)cc1` (centres unmarked), the inhibition was 59% (ADRA2C; ligand displacement, radioligand; 10 µM).
For `O=C(C1CCN(S(=O)(=O)c2cccc3cccnc23)CC1)N1CCn2c1nc1ccccc12`, the inhibition was 92% (lacZ; concentration not given).
The inhibition of `C=C(C)[C@H](CC=C(C)C)Cc1c(O)cc(OC)c2c1O[C@H](c1ccc(O)cc1O)CC2=O` is reported as greater than 70% (D(4) dopamine receptor (DRD4, Homo sapiens, UniProt P21917); 50 µM).
`Cc1ncc2n1-c1ccc(Cl)cc1C(c1ccccc1F)=NC2` has an AUC(0-inf) of 122 ng·h/mL (healthy men, plasma; oral, 7.5 mg, day 26, LS mean, with: 14 days post amenamevir).
`COc1ccc(Nc2ccc3c(c2)C(c2ccccc2F)=NC(C)C(=O)N3)cc1` (centres unmarked) gave an inhibition of 55% (ADRA2C; ligand displacement, radioligand; 10 µM).
With `O=c1c2ccccc2[se]n1-c1ccccc1` the inhibition was less than 50% (Genome polyprotein, NS3 helicase domain (Hepatitis C virus genotype 1b, UniProt Q9WMX2); NS3 helicase RNA binding, fluorescence polarization; concentration not given, highest tested concentration, with: 50 µM thiol (DTT, β-mercaptoethanol or cysteine)).
The inhibition of `O=C(NCc1ccc(-c2ccccc2)cc1)c1coc(-c2ccccc2O)n1` is reported as greater than 50% (HDAC1; enzyme activity, inhibitor; 20 µM).
`O=c1c2ccccc2[se]n1-c1ccccc1` has an inhibition of 40% (lacZ; concentration not given).
`NNC(=O)Cn1c2ccccc2c2cn[nH]c(=O)c21` gave a fold change of 6.88 (MCF7; RT-PCR, refers to: PUMA; 5 µM, 48 h, normalised to β-actin; reference: untreated).
The tissue uptake of `N=C(N)NCCC[C@@H]1NC(=O)[C@H](CCCCNC(=O)[C@H](CC(=O)O)NC(=O)[C@H](CC(=O)O)NC(=O)[C@H](CC(=O)O)NC(=O)CC[C@H](NC(=O)CCOCCOCCOCCOCCNC(=O)c2ccc(NN)nc2)C(=O)N[C@@H](CC(=O)O)C(=O)N[C@@H](CC(=O)O)C(=O)N[C@@H](CC(=O)O)C(=O)NCCCC[C@@H]2NC(=O)[C@@H](Cc3ccccc3)NC(=O)[C@H](CC(=O)O)NC(=O)CNC(=O)[C@H](CCCNC(=N)N)NC2=O)NC(=O)[C@@H](Cc2ccccc2)NC(=O)[C@H](CC(=O)O)NC(=O)CNC1=O` [technetium-99m labelled] is reported as 7.08 ± 0.92 %ID/g (γ-counting; female athymic nude mice, U-87 MG xenograft, intestine; intravenous, 1 h).
`O=C(Nc1ccc(-c2ccccc2)cc1)c1coc(-c2ccccc2O)n1` has an inhibition of greater than 50% (HDAC1; enzyme activity, inhibitor; 20 µM).
The inhibition of `CCc1ccccc1Nc1ccc2c(c1)C(c1ccccc1F)=NC(C)C(=O)N2` (centres unmarked) is reported as -11% (ADRA2C; ligand displacement, radioligand; 10 µM).
With `CCCCCCCCCCCCNS(=O)(=O)C(F)(F)F` the inhibition was 65% (Epoxide hydrolase 1 (EPHX1, Homo sapiens, UniProt P07099); enzyme activity, inhibitor, fluorescence; 100 µM).
`CCS(=O)(=O)CC(C)(O)[C@H]1CCc2c(c(C)cc(O)c(=O)c2O)C1` (mixture of isomers) gave an inhibition of roughly 100% (Gag-Pol polyprotein, RT RNase H domain (gag-pol, Human immunodeficiency virus type 1 group M subtype B, UniProt P04585); RNase H PPT cleavage, inhibitor; 20 µM).
`CCN1C(=O)C=CC1=O` gave an inhibition of 14 ± 4% (Acetylcholinesterase (Ace, Anopheles gambiae, UniProt Q869C3); enzyme activity; 100 µM, 30 min, after 10-fold dilution).
The inhibition of `COC(=O)c1ccc(Nc2ccc3c(c2)C(c2ccccc2F)=NC(C)C(=O)N3)cc1` (centres unmarked) is reported as 65% (ADRA2C; ligand displacement, radioligand; 10 µM).
`O=[N+]([O-])c1ccc(/N=N/c2ccc3nc(-c4ccccc4)c(I)c(-c4ccccc4)c3c2)cc1` has an inhibition of 54.8% (BCHE; enzyme activity, inhibitor; 100 µM).
With `COc1ccsc1CNCC[C@@]1(c2ccccn2)CCOC2(CCCC2)C1` the AUC(0-inf) was 23.7 ng·h/mL (healthy human, normal hepatic function, plasma; intravenous, 1 mg single dose, geometric mean).
With `CN(C)CCCN1c2ccccc2Sc2ccc(Cl)cc21` the inhibition was 87 ± 9% (Type II NADH:quinone oxidoreductase (Staphylococcus aureus, UniProt Q2YWP9); NDH-2 enzyme activity; E. coli membranes; 50 µM, 37 °C, with: 150 µM NADH).
For `[123I]c1cncc(OC[C@@H]2CCN2)c1`, the tissue/plasma ratio was 20.9 (SPECT; human, brain cortex; intravenous bolus plus infusion, 7.8 mCi; reference: plasma).
With `CCCC1OC(=O)C1CCCCc1ccc2ccccc2c1` (centres unmarked) the inhibition was 97 to 100% (85/88 kDa calcium-independent phospholipase A2 (PLA2G6, Homo sapiens, UniProt O60733); enzyme activity; 0.091 mole fraction).
`c1ccc(CCN2CCCCC2)cc1` has a Ki of greater than 10 µM (L-type calcium channel dihydropyridine site, rat; binding; rat cerebral cortex; with: [3H]nitrendipine 0.2 nM).
`CP(=O)(O)CCC(N)C(=O)O` (centres unmarked) gave a herbicidal activity of 80% (Digitaria sanguinalis; 60 g/ha, 13 days, DIGSA, post-emergence spray; reference: untreated (0%), complete kill (100%)).
`O=C(/C=C/c1ccc(OCc2ccccc2)cc1)c1ccc(OCc2ccccc2)cc1` gave an inhibition of 82.1% (ACHE; enzyme activity, inhibitor; concentration not given).
With `C[C@H]1CNCCc2ccc(Cl)cc21` the plasma concentration was 6.11 ± 0.48 ng/mL (Sprague-Dawley rat, male, plasma; subcutaneous, 1 mg/kg, 180 min).
`Cc1nc2sccn2c(=O)c1CCN1CCC(=C(c2ccccc2)c2ccc(F)cc2)CC1` gave an inhibition of 99% (5-hydroxytryptamine receptor 2C (HTR2C, Homo sapiens, UniProt P28335); agonist response, antagonist; 10 µM, with: reference agonist at EC90).
`CC1N=C(c2ccccc2F)c2cc(Nc3ccccc3)ccc2NC1=O` (centres unmarked) gave an inhibition of 84% (ADRA2C; ligand displacement, radioligand; 10 µM).
`Cn1c(=O)c2c(ncn2CC(=O)N/N=C2/C(=O)Nc3ccccc32)n(C)c1=O` gave an inhibition of greater than 75% (ACHE; enzyme activity, inhibitor, Ellman; 25 µM).
The inhibition of `CC1N=C(c2ccccc2F)c2cc(NCc3ccccc3)ccc2NC1=O` (centres unmarked) is reported as 47% (ADRA2C; ligand displacement, radioligand; 10 µM).
`O=C1/C(=N\NC(=S)NN=Cc2ccccc2)c2ccccc2N1Cc1ccccc1` gave an EC50 of greater than 100 µM (influenza A virus; cytopathic effect, MTS; MDCK, H1N1).
With `CC1N=C(c2ccccc2F)c2cc(Nc3ccc(C#N)cc3)ccc2NC1=O` (centres unmarked) the inhibition was 47% (ADRA2C; ligand displacement, radioligand; 10 µM).
For `COc1ccc(/C=N/NC(=O)Cn2cnc3c2c(=O)n(C)c(=O)n3C)cc1`, the inhibition was 55.4% (ACHE; enzyme activity, inhibitor, Ellman; 25 µM).

A few entries again:
`CCS(=O)(=O)CC(C)(O)[C@H]1CCc2c(c(C)cc(O)c(=O)c2O)C1` (mixture of isomers) gave an inhibition of roughly 100% (Gag-Pol polyprotein, RT RNase H domain (gag-pol, Human immunodeficiency virus type 1 group M subtype B, UniProt P04585); RNase H PPT cleavage, inhibitor; 20 µM).
For `[123I]c1cncc(OC[C@@H]2CCN2)c1`, the tissue/plasma ratio was 20.9 (SPECT; human, brain cortex; intravenous bolus plus infusion, 7.8 mCi; reference: plasma).
With `CSCC[C@H](NC(=O)OCC1c2ccccc2-c2ccccc21)C(=O)O` the inhibition was no more than 10% (BCHE; enzyme activity, Ellman method; 200 µM, 2% methanol).
`COc1cc(/C=N/NC(=O)Cn2cnc3c2c(=O)n(C)c(=O)n3C)ccc1O` gave an inhibition of greater than 75% (ACHE; enzyme activity, inhibitor, Ellman; 25 µM).
`O=[N+]([O-])c1ccc(/N=N/c2ccc3nc(-c4ccccc4)c(I)c(-c4ccccc4)c3c2)cc1` has an inhibition of 54.8% (BCHE; enzyme activity, inhibitor; 100 µM).
